# Results from different studies.
# Parts stem from different laboratories: compare values within a part only.
# UniProt Q9NWZ3, sequence (whole entry, looked up): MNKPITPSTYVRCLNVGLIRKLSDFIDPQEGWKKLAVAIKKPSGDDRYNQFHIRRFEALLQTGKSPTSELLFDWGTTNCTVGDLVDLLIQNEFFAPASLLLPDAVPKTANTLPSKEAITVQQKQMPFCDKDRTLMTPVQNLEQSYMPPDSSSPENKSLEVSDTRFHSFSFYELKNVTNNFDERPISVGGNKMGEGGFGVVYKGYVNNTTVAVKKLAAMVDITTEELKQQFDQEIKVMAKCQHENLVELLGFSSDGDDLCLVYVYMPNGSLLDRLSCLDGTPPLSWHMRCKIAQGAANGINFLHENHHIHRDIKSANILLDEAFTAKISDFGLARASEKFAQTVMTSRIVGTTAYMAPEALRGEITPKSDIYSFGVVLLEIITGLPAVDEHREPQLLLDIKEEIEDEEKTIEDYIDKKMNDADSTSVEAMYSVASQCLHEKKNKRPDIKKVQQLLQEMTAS
# UniProt Q9NRH2, sequence (whole entry, looked up): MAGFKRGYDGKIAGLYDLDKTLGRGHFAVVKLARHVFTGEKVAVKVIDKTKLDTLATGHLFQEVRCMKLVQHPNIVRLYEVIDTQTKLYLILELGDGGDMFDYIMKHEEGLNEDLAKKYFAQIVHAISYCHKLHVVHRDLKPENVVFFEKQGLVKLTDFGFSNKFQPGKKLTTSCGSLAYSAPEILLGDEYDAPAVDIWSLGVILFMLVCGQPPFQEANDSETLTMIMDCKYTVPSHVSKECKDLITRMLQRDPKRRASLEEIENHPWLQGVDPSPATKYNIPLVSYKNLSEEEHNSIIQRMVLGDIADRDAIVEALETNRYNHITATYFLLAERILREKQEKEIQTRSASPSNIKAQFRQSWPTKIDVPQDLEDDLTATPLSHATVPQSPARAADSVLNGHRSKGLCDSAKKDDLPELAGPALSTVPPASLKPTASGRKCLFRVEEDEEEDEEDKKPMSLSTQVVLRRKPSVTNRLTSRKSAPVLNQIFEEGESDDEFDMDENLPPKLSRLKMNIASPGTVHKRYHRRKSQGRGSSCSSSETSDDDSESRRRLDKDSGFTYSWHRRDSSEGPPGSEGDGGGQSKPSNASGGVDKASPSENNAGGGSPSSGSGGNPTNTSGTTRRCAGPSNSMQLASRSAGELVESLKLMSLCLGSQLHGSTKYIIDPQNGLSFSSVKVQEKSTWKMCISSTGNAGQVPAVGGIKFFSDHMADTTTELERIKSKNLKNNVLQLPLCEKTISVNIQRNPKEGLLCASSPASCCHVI
# UniProt Q99558, sequence (whole entry, looked up): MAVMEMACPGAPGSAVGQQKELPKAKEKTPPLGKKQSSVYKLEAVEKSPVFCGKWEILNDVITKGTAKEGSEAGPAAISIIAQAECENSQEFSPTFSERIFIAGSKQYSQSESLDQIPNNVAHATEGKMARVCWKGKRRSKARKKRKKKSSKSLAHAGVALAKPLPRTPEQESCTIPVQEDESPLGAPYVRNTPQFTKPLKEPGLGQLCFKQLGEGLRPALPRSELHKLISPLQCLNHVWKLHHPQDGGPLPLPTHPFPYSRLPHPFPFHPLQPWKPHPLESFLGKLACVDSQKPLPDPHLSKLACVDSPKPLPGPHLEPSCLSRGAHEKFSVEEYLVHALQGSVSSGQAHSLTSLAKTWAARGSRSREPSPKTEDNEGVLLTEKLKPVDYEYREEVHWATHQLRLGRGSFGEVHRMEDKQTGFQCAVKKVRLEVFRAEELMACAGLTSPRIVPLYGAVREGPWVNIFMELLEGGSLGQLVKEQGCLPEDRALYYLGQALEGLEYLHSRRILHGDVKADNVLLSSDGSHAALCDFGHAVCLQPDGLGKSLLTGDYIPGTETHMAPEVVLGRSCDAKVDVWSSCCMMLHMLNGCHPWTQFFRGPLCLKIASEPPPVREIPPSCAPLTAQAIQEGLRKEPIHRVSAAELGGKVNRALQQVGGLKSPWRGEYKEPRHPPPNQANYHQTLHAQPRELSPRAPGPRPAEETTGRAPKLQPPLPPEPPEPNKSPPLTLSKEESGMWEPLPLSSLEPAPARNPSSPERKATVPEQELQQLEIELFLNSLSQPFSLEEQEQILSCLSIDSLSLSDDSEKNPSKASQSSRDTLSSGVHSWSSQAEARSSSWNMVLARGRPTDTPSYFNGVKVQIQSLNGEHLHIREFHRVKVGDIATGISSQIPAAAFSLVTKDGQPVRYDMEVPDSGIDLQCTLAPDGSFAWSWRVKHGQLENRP
# UniProt P08922, sequence (whole entry, looked up): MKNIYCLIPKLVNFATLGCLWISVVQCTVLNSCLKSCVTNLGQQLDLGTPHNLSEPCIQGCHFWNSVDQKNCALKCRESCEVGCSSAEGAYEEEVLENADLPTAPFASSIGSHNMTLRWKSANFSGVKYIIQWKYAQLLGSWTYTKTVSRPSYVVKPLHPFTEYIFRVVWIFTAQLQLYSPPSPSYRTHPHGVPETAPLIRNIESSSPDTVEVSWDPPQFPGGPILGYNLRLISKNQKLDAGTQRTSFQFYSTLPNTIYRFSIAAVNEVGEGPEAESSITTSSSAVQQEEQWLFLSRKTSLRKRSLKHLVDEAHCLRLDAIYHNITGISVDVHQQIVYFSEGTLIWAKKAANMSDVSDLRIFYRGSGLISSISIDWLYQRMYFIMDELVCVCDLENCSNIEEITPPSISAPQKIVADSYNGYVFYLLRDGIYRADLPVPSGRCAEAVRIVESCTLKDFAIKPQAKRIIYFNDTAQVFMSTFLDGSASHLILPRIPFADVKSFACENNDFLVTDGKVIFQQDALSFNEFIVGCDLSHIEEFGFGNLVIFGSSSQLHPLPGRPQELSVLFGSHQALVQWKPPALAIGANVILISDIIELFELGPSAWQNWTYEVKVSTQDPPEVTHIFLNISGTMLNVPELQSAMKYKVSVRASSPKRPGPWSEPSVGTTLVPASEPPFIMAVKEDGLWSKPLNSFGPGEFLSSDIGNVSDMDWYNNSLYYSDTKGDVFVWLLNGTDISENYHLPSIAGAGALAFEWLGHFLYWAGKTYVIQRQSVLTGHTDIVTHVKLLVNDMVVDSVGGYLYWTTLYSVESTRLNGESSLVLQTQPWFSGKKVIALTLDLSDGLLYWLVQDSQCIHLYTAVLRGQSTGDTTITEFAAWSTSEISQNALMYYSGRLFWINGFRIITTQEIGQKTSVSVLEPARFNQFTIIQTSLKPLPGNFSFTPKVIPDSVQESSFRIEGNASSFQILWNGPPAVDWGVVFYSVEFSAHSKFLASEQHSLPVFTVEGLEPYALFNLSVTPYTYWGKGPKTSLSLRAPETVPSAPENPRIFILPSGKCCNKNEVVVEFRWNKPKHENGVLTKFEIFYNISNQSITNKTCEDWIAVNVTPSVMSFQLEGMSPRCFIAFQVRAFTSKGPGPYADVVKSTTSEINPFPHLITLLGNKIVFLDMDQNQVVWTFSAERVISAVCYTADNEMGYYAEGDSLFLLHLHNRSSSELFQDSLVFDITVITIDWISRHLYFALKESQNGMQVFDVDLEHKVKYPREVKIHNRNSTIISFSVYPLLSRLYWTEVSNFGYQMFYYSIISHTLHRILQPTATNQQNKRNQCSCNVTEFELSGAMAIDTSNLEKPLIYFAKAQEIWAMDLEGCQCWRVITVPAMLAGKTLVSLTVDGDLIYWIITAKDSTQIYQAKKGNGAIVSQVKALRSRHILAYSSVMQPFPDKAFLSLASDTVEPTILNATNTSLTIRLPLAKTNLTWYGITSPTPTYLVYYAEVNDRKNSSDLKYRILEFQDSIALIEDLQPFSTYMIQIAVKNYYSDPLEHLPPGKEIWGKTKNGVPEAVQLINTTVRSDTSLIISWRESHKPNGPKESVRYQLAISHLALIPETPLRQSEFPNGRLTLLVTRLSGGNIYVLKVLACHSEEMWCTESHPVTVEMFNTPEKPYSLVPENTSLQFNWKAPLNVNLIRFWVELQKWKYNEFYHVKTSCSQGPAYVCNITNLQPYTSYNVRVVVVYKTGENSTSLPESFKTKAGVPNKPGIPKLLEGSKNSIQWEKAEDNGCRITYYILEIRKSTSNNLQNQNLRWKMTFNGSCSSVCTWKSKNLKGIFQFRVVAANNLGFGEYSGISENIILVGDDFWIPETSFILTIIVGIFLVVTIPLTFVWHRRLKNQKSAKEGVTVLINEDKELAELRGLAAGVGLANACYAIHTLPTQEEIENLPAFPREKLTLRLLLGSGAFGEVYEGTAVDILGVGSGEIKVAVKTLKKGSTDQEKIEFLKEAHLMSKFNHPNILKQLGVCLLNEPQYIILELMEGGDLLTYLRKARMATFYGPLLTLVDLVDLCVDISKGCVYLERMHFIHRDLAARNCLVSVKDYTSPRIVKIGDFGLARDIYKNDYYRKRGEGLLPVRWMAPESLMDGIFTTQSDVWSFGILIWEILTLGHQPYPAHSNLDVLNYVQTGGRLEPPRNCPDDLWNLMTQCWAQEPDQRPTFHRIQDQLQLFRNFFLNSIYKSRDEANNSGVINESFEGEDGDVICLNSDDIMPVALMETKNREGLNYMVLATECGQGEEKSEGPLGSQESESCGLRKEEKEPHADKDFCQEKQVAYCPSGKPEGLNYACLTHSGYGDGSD
# UniProt Q96RR4, sequence (whole entry, looked up): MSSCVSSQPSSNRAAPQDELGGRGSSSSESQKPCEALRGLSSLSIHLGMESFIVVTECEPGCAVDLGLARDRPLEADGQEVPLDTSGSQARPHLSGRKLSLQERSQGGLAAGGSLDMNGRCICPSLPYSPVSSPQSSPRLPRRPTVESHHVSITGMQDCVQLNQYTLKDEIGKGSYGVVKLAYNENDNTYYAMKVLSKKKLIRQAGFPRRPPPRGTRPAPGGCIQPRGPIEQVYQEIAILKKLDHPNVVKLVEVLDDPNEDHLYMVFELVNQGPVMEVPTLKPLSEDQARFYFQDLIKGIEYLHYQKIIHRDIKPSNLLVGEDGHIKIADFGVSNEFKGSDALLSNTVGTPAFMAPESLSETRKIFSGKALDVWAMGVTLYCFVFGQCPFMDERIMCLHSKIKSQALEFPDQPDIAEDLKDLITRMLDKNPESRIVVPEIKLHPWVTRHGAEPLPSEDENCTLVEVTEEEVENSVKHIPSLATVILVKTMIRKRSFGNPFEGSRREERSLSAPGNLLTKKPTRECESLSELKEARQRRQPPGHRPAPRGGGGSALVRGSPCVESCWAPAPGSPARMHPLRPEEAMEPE

# Series 1
# Compound: O=C(N1CCS(=O)(=O)CC1)N1C[C@H](c2ccc(OC(F)(F)F)cc2)C[C@H](c2nc(C3CC3)no2)C1
# Tested at: 1 µM
target,assay,remaining binding [%]
"STK25 (Homo sapiens, UniProt O00506)","cell-free assay, competition with immobilised ligand",93
"SNRK (Homo sapiens, UniProt Q9NRH2)","cell-free assay, competition with immobilised ligand",93
"GSK3B (Homo sapiens, UniProt P49841)","cell-free assay, competition with immobilised ligand",100
"EGFR (Homo sapiens, UniProt P00533, G719C)","cell-free assay, competition with immobilised ligand",97
"CDK2 (Homo sapiens, UniProt P24941)","cell-free assay, competition with immobilised ligand",100
"STK32B (Homo sapiens, UniProt Q9NY57)","cell-free assay, competition with immobilised ligand",100
"SIK1 (Homo sapiens, UniProt P57059)",competition binding,99
"NEK3 (Homo sapiens, UniProt P51956)","cell-free assay, competition with immobilised ligand",100
"eIF-2-alpha kinase GCN2, C-terminal kinase domain (EIF2AK4, Homo sapiens, UniProt Q9P2K8, S808G)","cell-free assay, competition with immobilised ligand",100
"FLT3 (Homo sapiens, UniProt P36888, K663Q)","cell-free assay, competition with immobilised ligand",100
"LIM domain kinase 1 (LIMK1, Homo sapiens, UniProt P53667)","cell-free assay, competition with immobilised ligand",100
"Myosin-IIIa (MYO3A, Homo sapiens, UniProt Q8NEV4)","binding, competition with immobilised ligand",100
"FLT3 (Homo sapiens, UniProt P36888, D835Y)","cell-free assay, competition with immobilised ligand",100
"OXSR1 (Homo sapiens, UniProt O95747)","cell-free assay, competition with immobilised ligand",100
"ALK (Homo sapiens, UniProt Q9UM73, L1196M)","cell-free assay, competition with immobilised ligand",65
"PNCK (Homo sapiens, UniProt Q6P2M8)","cell-free assay, competition with immobilised ligand",100
"IGF1R (Homo sapiens, UniProt P08069)","cell-free assay, competition with immobilised ligand",100
"ROS1 (Homo sapiens, UniProt P08922)","cell-free assay, competition with immobilised ligand",100
"CAMKK2 (Homo sapiens, UniProt Q96RR4)","cell-free assay, competition with immobilised ligand",100
"EPHA1 (Homo sapiens, UniProt P21709)","cell-free assay, competition with immobilised ligand",100
"MAP3K14 (Homo sapiens, UniProt Q99558)","cell-free assay, competition with immobilised ligand",87
"IRAK4 (Homo sapiens, UniProt Q9NWZ3)","cell-free assay, competition with immobilised ligand",80
"PIK3CA (Homo sapiens, UniProt P42336, H1047Y)","cell-free assay, competition with immobilised ligand",100
"TEK (Homo sapiens, UniProt Q02763)","cell-free assay, competition with immobilised ligand",100

# Series 2
# Cell line: A-375
# Tested at: 100 µM
# Time: 18 h
SMILES,viability [%]
Cc1noc(NS(=O)(=O)c2ccc(N)cc2)c1C,94.3
CS(=O)(=O)c1ccc([C@@H](O)[C@@H](CO)NC(=O)C(Cl)Cl)cc1,105
CC(=O)OCC(COC(C)=O)OC(C)=O,91.6
COc1cc(CCC(=O)O)ccc1O,80.6
CS(=O)(=O)c1ccc(C2=C(c3ccccc3)C(=O)OC2)cc1,98.5
O=C(Nc1ccccc1)OCC(CN1CCCCC1)OC(=O)Nc1ccccc1 (stereo not shown),28.3
O=c1oc2ccccc2c(O)c1Cc1c(O)c2ccccc2oc1=O,47
CCCCC(O)c1ccccc1 (stereo not shown),75.2
O=C(Nc1ccc(O)cc1)c1ccccc1O,94.3

# Series 3
# Host: mouse
# Medium: microsomes or S9
# Tested at: 2 µM
# Time: 0.5 h
Structure (SMILES),remaining compound
CCCc1nc(N2CCN(CC(=O)N3CCCC3)CC2)c(C#N)c2c1CCC2,0.138%
CC(C)(C)n1cc(Nc2cccc(F)c2C#N)cn1,0.936%
Cc1ccccc1-c1nc2ccccc2cc1CN(C(=O)CCNC(=O)OC(C)(C)C)c1ccnc(S(C)(=O)=O)n1,10.6%
COC(=O)CC(c1ccc(OC)c(OC(C)C)c1)c1c(O)cc(C)[nH]c1=O (stereo not shown),61.9%
COc1ccc(CNc2ccc(C(=O)N3CCN(Cc4ccc(OC)c(OC)c4OC)CC3)cc2S(=O)(=O)Nc2cccc(OC)c2)cc1,2.38%
CCN(C1=C(N2CCC(C)CC2)C(=O)c2ccccc2C1=O)c1ccccc1,0.0446%
CC(=O)c1c[nH]c(C(=O)Nc2cc(C(F)(F)F)ccc2O)c1,0.7%
CC(=O)c1cccc(NC(=O)CN(C)S(=O)(=O)c2c(C)cc(C)cc2C)c1,22.4%
O=C1CCC2(C(=O)NCCCn3cccn3)CCCC=C2N1C1CCCC1 (stereo not shown),1.99%
CC(C)(C)c1nc(CS(=O)(=O)c2nnc3c(Cl)cc(Cl)cn23)cs1,0.626%
Cn1c2c(c3cc(O)ccc31)C=NC(Cc1ccccc1)C(=O)N2 (stereo not shown),86.8%
CS(=O)(=O)NCC(=O)N1Cc2ccccc2C(c2ccccc2)C1 (stereo not shown),97.6%

# Series 4
# SMILES: CCCCc1c(-c2ccc(O)cc2)[nH]c2nccnc12
# Read-out: enzyme activity
# Mode: inhibitor
# Tested at: 0.5 µM
# Baseline: control
target,remaining activity [%]
"HIPK2 (Homo sapiens, UniProt Q9H2X6)",88.5
"TSSK2 (Homo sapiens, UniProt Q96PF2)",96.7
"SRMS (Homo sapiens, UniProt Q9H3Y6)",95.4
"Cyclin-dependent kinase 4, with cyclin D3 (CDK4, Homo sapiens, UniProt P11802)",71
"ABL1 (Homo sapiens, UniProt P00519)",79
"HIPK4 (Homo sapiens, UniProt Q8NE63)",108
"RPS6KA5 (Homo sapiens, UniProt O75582)",101
"STK16 (Homo sapiens, UniProt O75716)",55.4
"PHKG1 (Homo sapiens, UniProt Q16816)",86.7

# Single results of other studies
SMILES,target,assay,measurement,result
C[C@@H]1CN(c2ccc(-c3cc(C(=O)NCCOCCOCCOCCOCCNC(=O)Cn4cc(-c5[nH]cc(C(=O)N[C@@H](CC(N)=O)c6ccc(F)c(Cl)c6)c5-c5ccc(Cl)cc5F)cn4)ccc3F)cc2NC(=O)c2c[nH]c(=O)cc2C(F)(F)F)C[C@H](C)N1C,"DDB1- and CUL4-associated factor 1 (DCAF1, Homo sapiens, UniProt Q9Y4B6)",SPR,association rate constant,159000 M⁻¹ s⁻¹
